Results pooled from the literature.
Compare with care: the assays were run in different laboratories. ± marks the error that the study gave.

`O=C1c2ccccc2C2(c3ccc(O)cc3Oc3cc(O)ccc32)N1CCS(=O)(=O)O`: viability “not toxic” (human retinal microvascular endothelial cells; MTT; up to 200 µmol/L, 24 h).
`CC(C)C[C@H](NC(=O)[C@H](C)NC(=O)CNC(=O)[C@@H](NC(=O)[C@@H](NC(=O)[C@H](CCCCN)NC(=O)[C@H](CCCCN)NC(=O)[C@H](CC(C)C)NC(=O)[C@H](CC(C)C)NC(=O)[C@H](CCCCN)NC(=O)[C@H](CC(C)C)NC(=O)[C@H](CC(C)C)NC(=O)[C@@H](N)CCCCN)C(C)C)C(C)C)C(=O)NCC(N)=O` — result for “minimal hemolytic concentration”: 125 µM (human erythrocytes; 1 h, 37 °C, hemolysis ≤5%).
`CC(C)C[C@H](NC(=O)[C@H](CCCNC(=N)N)NC(=O)[C@H](Cc1ccccc1)NC(=O)[C@H](Cc1ccccc1)NC(=O)[C@@H](NC(=O)[C@H](COP(=O)(O)O)NC(=O)[C@@H](N)COP(=O)(O)O)[C@@H](C)O)C(=O)N[C@@H](Cc1ccccc1)C(=O)N[C@@H](CC(N)=O)C(=O)N[C@@H](CCCNC(=N)N)C(=O)N[C@@H](C)C(=O)N[C@@H](CCCCN)C(=O)N[C@@H](CCCNC(=N)N)C(=O)N[C@@H](Cc1c[nH]cn1)C(=O)N[C@@H](Cc1c[nH]cn1)C(=O)NCC(=O)N[C@@H](Cc1ccc(O)cc1)C(=O)N[C@@H](CCCCN)C(=O)N[C@@H](CCCNC(=N)N)C(=O)N[C@@H](CCCCN)C(=O)N[C@@H](Cc1ccccc1)C(=O)N[C@@H](Cc1c[nH]cn1)C(=O)O` — result for viability: “no effect” (MC3T3-E1; CCK-8; up to MBC, 24 h; baseline: control).
The mass balance of `Clc1c(Cl)c(Cl)c2c(oc3c(Cl)c(Cl)c(Cl)c(Cl)c32)c1Cl` is reported as 96 ± 8% (Caco-2 monolayer; GC-HRMS; gut-on-a-chip; 0.2 ng/mL, 24 h, 1% DMSO).
The IC50 of `CCCCn1cc(C(=O)O)c(=O)c2cc(F)c(Nc3ccccc3Cl)c(N)c21` is reported as 38.5 ± 0.71 µg/mL (HT-29; cell growth, SRB; 72 h).
The mass balance of `Clc1cc2c(cc1Cl)Oc1c(Cl)c(Cl)c(Cl)c(Cl)c1O2` is reported as 84 ± 2% (Caco-2 monolayer; GC-HRMS; static Transwell; 0.2 ng/mL, 24 h, 1% DMSO, congener mixture).
With `[2H]c1c(NS(C)(=O)=O)c([2H])c2c(C(=O)c3ccc(OCCCN(CCCC)CCCC)cc3)c(CCCC)oc2c1[2H]` the EC50 was 27.6 ± 2.34 µM (H9c2 differentiated; cytotoxicity, refers to: dead-cell protease; 6 h).
For `CCCCn1cc(C(=O)O)c(=O)c2cc(F)c3c(nnn3-c3ccccc3Cl)c21`, the IC50 was 278 ± 11.6 µg/mL (SW480; cell growth, SRB; 72 h).
For `CC(C)(C)[Si](C)(C)OC[C@H]1O[C@@H](n2cc(Cl)c(=O)[nH]c2=O)[C@H](I)[C@@H](O[Si](C)(C)C(C)(C)C)[C@@H]1O[Si](C)(C)C(C)(C)C`, cytotoxicity read “toxic” (Vero; MTT; concentration not given).
For `CC(C)=C1CC[C@]23CO[C@H](C2)[C@@](O)(C(=O)O)CC[C@@H]13`, cytotoxicity read “not toxic” (SK-MEL-1; CellTiter-Glo; up to 500 µM, 72 h).
`C#CC[C@H](NC(=O)CNC(=O)[C@H](CO)NC(=O)[C@@H]1CCCCNC(=O)CCCC(=O)N[C@@H](CCSC)C(=O)N[C@@H](Cc2c[nH]c3ccccc23)C(=O)N2CCC[C@H]2C(=O)N[C@@H](Cc2c[nH]cn2)C(=O)N[C@@H](CCCNC(=N)N)C(=O)N[C@@H](C(C)C)C(=O)N[C@@H]([C@@H](C)O)C(=O)N[C@@H](C)C(=O)N(C)[C@@H](C)C(=O)N1)C(=O)O` gave a CP50 of 1.26 ± 0.13 µM (HeLa HaloTag-GFP-Mito; cell penetration, chloroalkane penetration; 4 h).
`CC(C)(CO)NCC1=C(O)C(=O)c2ccccc2C1=O`: cytotoxicity “toxic” (HepG2 cells; MTT; concentration not given).
For `O=C(Cc1csc2nc(-c3ccc(Br)cc3)cn12)NN=C1CCCC1`, “minimum cytotoxic concentration” read > 100 µg/mL (HEL human embryonic lung fibroblast; microscopy of cell morphology).
With `CNC(=O)c1cc(Oc2ccc(NC(=O)c3ccc(-c4cccc(COC(=O)CCC(=O)OC5OC6OC7(C)CCC8C(C)CCC(C5C)C68OO7)c4)cn3)cc2)ccn1` (stereo not shown) the selectivity ratio was 2 (LO2 normal hepatocytes; MTT; baseline: artesunate cytotoxicity over compound cytotoxicity).
`CCN(CC)CC12C3CCC4C3C3C(CCC31)C42` has a CC50 of 47 µM (dog cells; cytotoxicity; 3 (unit not given)).
`NC(=O)c1ccc(C(=O)NOCc2ccc(Sc3cccc(Cl)c3)c(C(F)(F)F)c2)cc1` — result for cytotoxicity: “not toxic” (SW1990 cells (human); CCK-8; 100 µM).
For `C1CC2C3C4C5CCC4C24CNCC54C13`, the CC50 was ≥ 100 µM (dog cells; cytotoxicity; 3 (unit not given)).
`CC(C)c1cc2c(c(O)c1O)C1(C=O)CCCC(C)(C)C1CC2` (stereo not shown) has a cytotoxic concentration of ≥ 40 µM (HeLa, SW480, HCT-116; 12 h).
The mass balance of `Clc1cc2oc3cc(Cl)c(Cl)cc3c2cc1Cl` is reported as 75 ± 1% (Caco-2 monolayer; GC-HRMS; static Transwell; 0.2 ng/mL, 24 h, 1% DMSO, congener mixture).
`CCCCCCCCCCCC(=O)Nc1ccccc1SSc1ccccc1NC(=O)CCCCCCCCCCC` — result for cytotoxicity: “not toxic” (HaCaT; MTT; up to 10 mg/mL).
With `S=c1n(-c2ccccc2)c2c3ccccc3nc3[n+]2[n]1[Ir-3]12([S]3)([c]3cccc4ccc5ccc[n+]1c5c34)[c]1cccc3ccc4ccc[n+]2c4c13` the mortality was < 3.4% (HeLa cells; annexin V/propidium iodide; concentration not given, dark).
`O=C(CCc1ccccc1)NOC(=O)OCc1ccccc1` gave a viability of > 98% (L929; MTT; 25 µM, 24 h).
The CC50 of `CCC1(CC)C2CC3CC(C2)CC1(N(C)C)C3` is reported as > 100 µM (dog cells; cytotoxicity; 3 (unit not given)).
`CC(C)C[C@@H]1NC(=O)[C@H](CCCN)NC(=O)[C@H](C(C)C)NC(=O)[C@@H]2CCCN2C(=O)[C@@H](Cc2ccccc2)NC(=O)[C@H](CC(C)C)NC(=O)[C@H](CCCN)NC(=O)[C@H](C(C)C)NC(=O)[C@@H]2CCCN2C(=O)[C@@H](Cc2ccccc2)NC1=O`: hemolysis “no inhibition” (rat erythrocytes; concentration not given, 30 min, pH 7.4, 37 °C, added: Escherichia coli K-235 LPS, 1:5 w/w).
`CCCCn1cc(C(=O)O)c(=O)c2cc(F)c(Nc3cccc(Cl)c3)c([N+](=O)[O-])c21` has an IC50 of 602 µM (SW480; cell growth or viability, SRB).
The CP50 of `C#CC[C@H](NC(=O)CNC(=O)[C@H](CO)NC(=O)[C@@H]1CCCCNC(=O)CCCC(=O)N[C@@H](CCSC)C(=O)N[C@@H](Cc2c[nH]c3ccccc23)C(=O)N2CCC[C@H]2C(=O)N[C@@H](Cc2c[nH]cn2)C(=O)N[C@@H](CCCNC(=N)N)C(=O)N[C@@H](C(C)C)C(=O)N[C@@H]([C@@H](C)O)C(=O)N[C@@H](C)C(=O)N[C@@H](C)C(=O)N1)C(=O)O` is reported as 0.81 ± 0.04 µM (HeLa HaloTag-GFP-Mito; cell penetration, chloroalkane penetration; 24 h).
The CC50 of `O=C(NCc1c(F)cccc1F)c1cn(Cc2ccc(F)cc2)cc(O)c1=O` is reported as 7.5 µM (HFF; cell growth or viability, MTS; 7 days).
`Cc1c(Br)cnc2c1NC(=O)c1cccnc1N2C1CC1`: “mRNA fold change” 11 fold (pooled primary human hepatocytes; inducer, qPCR, refers to: CYP3A4; 100 µM, 72 h; baseline: DMSO).
`Clc1c(Cl)c(Cl)c2c(c1Cl)Oc1c(Cl)c(Cl)c(Cl)c(Cl)c1O2` gave a mass balance of 82 ± 2% (Caco-2 monolayer; GC-HRMS; static Transwell; 0.2 ng/mL, 24 h, 1% DMSO, congener mixture).
The IC50 of `CCCCn1cc(C(=O)O)c(=O)c2cc(F)c(Nc3ccccc3Cl)c([N+](=O)[O-])c21` is reported as 82.8 ± 2.96 µg/mL (HT-29; cell growth, SRB; 72 h).
With `CNCC12C3CCC4C3C3C(CCC31)C42` the CC50 was > 100 µM (dog cells; cytotoxicity; 3 (unit not given)).
`O=C1/C(=N\NC(=S)NN=Cc2cccs2)c2ccccc2N1Cc1ccccc1`: “minimum cytotoxic concentration” 100 µM (HEL; cell morphology).
For `CCCCn1cc(C(=O)O)c(=O)c2cc(F)c3c(nnn3-c3cccc(Cl)c3)c21`, the IC50 was 152 µM (SW480; cell growth or viability, SRB).
`CC[C@H](C)[C@H](N)C1=N[C@H](C(=O)N[C@@H](CC(C)C)C(=O)N[C@H](CCC(=O)O)C(=O)N[C@H](C(=O)N[C@H]2CCCCNC(=O)[C@H](CC(N)=O)NC(=O)[C@@H](CC(=O)O)NC(=O)[C@H](Cc3c[nH]cn3)NC(=O)[C@@H](Cc3ccc4ccccc4c3)NC(=O)[C@H]([C@@H](C)CC)NC(=O)[C@@H](CCCN)NC2=O)[C@@H](C)CC)CS1` gave a hemolysis of 0% (sheep red blood cells; 128 µg/mL, 20 h, 37 °C; baseline: Triton X-100 0.1%).

For quick reference, copied from above:
`CC(C)c1cc2c(c(O)c1O)C1(C=O)CCCC(C)(C)C1CC2` (stereo not shown) has a cytotoxic concentration of ≥ 40 µM (HeLa, SW480, HCT-116; 12 h).
The IC50 of `CCCCn1cc(C(=O)O)c(=O)c2cc(F)c(Nc3ccccc3Cl)c([N+](=O)[O-])c21` is reported as 82.8 ± 2.96 µg/mL (HT-29; cell growth, SRB; 72 h).
`CC(C)(CO)NCC1=C(O)C(=O)c2ccccc2C1=O`: cytotoxicity “toxic” (HepG2 cells; MTT; concentration not given).
